Experimental data pooled from the literature.
Each line is one published result; not all experiments were run side by side. ± gives the spread as reported.

C=CC(=O)N(C)CCOc1c(N)ncnc1-c1cc(F)cc(NC(=O)c2ccc(C3CC3)cc2F)c1C
AUC(0-inf) (human, whole blood; oral, 200 mg, single ascending dose): 693 ng·h/mL

C=CC(=O)N(C)CCOc1c(N)ncnc1-c1cc(F)cc(NC(=O)c2ccc(C3CC3)cc2F)c1C
AUC(0-inf) per dose (human; oral, 20 mg, day 7, median, added: ritonavir): 21.6 ng·h/mL/mg

CC1(C)CC[C@]2(NC(=O)C(C)(F)F)CC[C@]3(C)[C@H](C(=O)C=C4[C@@]5(C)C=C(C#N)C(=O)C(C)(C)[C@@H]5CC[C@]43C)[C@@H]2C1
AUC(0-inf) fold increase (human, plasma; oral, dose not given, added: itraconazole; reference: without itraconazole): ~4 fold

CC(C)[C@@H]1CC[C@@H](C)C[C@H]1OC(=O)O[C@@H](C)OC(=O)[C@H]1[C@@H]2C[C@H](F)[C@@](N)(C(=O)O)[C@@H]21
AUC(0-inf) ratio (human, plasma; oral, 20 mg, single dose; reference: fed over fasted): 0.963

C=CC(=O)NC1CCN(c2ncc3ncnc(Nc4ccc(Oc5ccc6c(c5)ncn6C)c(C)c4)c3n2)CC1
AUC(0-inf) ratio (healthy male humans; oral, dose not given, added: carbamazepine; reference: with over without carbamazepine): 36.5%

CC(C)c1nc(N(C)S(C)(=O)=O)nc(-c2ccc(F)cc2)c1/C=C/[C@@H](O)C[C@@H](O)CC(=O)O
AUC(0-inf) decrease (healthy human subjects; oral, 10 mg, added: fruquintinib 5 mg; reference: fruquintinib alone): ~19%

N[C@@H]1c2cccnc2[C@H](OC(=O)N2CCC(n3c(=O)[nH]c4ncccc43)CC2)CC[C@H]1c1cccc(F)c1F
AUC(0-inf) decrease (human, plasma; oral, 75 mg single dose, added: rifampin; reference: compound alone): 81%

N[C@]1(C(=O)O)[C@H]2[C@@H](C[C@@H]1F)[C@@H]2C(=O)O
AUC(0-inf) ratio (human, both sexes, plasma; oral, 20 mg, single dose; reference: fed over fasted): 0.817

C[C@H](Oc1ccc(Br)cc1-c1ccon1)C(=O)O
AUC(0-inf) ratio (human, plasma; 800 mg single dose; reference: female over male): 1.33

CCOc1cc(CC(=O)N[C@@H](CC(C)C)c2ccccc2N2CCCCC2)ccc1C(=O)O
AUC(0-inf) decrease (human; oral, dose not given, added: omaveloxolone; reference: substrate alone): 35%

CC(C)=CCC/C(C)=C/CC/C(C)=C/CC[C@@](C)(O)CCC1=C(C)C(=O)C(C)=C(C)C1=O
AUC(0-inf) geometric mean (healthy human, plasma; oral, 400 mg, added: itraconazole 200 mg): 11100 ng·h/mL

N[C@@H](CC(=O)N1CCn2c(nnc2C(F)(F)F)C1)Cc1cc(F)c(F)cc1F
AUC(0-inf) divided by body mass index (human, male, plasma; oral, 100 mg single dose): 147 ± 37 ng·h/mL

NC[C@@]1(CC(=O)O)[C@@H]2CC[C@H]3C[C@@H]2[C@@H]1C3
AUC(0-inf) increase (human, severe renal impairment, plasma; dose not given; reference: normal renal function): 273%

CCCS(=O)(=O)N[C@H]1C[C@@H](N(C)c2ncnc3[nH]ccc23)C1
AUC(0-inf) geometric mean (healthy human, plasma; oral, 100 mg): 1550 ng·h/mL

Cc1cc(Nc2ncnc3ccc(NC4=NC(C)(CO)CO4)cc23)ccc1Oc1ccn2ncnc2c1 (stereo not drawn)
AUC(0-inf) (geometric mean) (human, plasma; oral, 300 mg tucatinib single dose, day 1, tucatinib alone): 439 ng·h/mL

For quick reference, copied from above:
CCCS(=O)(=O)N[C@H]1C[C@@H](N(C)c2ncnc3[nH]ccc23)C1
AUC(0-inf) geometric mean (healthy human, plasma; oral, 100 mg): 1550 ng·h/mL
